Published values from different studies.
Each numbered part is a random draw from the data of one study; scales do not carry over between parts. “And” joins repeats or separate records; there may be more than shown.
UniProt P30291, sequence (whole entry, looked up): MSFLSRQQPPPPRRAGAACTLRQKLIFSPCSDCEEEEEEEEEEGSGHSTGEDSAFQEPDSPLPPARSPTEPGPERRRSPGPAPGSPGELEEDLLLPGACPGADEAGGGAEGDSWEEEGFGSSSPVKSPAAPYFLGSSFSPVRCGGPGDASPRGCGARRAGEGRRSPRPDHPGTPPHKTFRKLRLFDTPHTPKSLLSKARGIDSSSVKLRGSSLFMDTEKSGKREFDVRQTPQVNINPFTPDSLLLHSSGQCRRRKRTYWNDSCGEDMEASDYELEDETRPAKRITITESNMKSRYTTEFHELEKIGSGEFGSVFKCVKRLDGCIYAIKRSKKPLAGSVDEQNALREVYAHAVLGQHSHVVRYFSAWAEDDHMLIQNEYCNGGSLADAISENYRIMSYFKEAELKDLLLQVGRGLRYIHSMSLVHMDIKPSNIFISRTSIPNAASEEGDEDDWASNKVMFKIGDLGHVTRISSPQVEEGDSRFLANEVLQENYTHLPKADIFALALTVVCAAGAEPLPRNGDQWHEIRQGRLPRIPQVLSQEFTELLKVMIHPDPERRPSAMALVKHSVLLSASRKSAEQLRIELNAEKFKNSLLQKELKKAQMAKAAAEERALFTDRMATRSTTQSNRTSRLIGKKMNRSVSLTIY
UniProt O15111, sequence (whole entry, looked up): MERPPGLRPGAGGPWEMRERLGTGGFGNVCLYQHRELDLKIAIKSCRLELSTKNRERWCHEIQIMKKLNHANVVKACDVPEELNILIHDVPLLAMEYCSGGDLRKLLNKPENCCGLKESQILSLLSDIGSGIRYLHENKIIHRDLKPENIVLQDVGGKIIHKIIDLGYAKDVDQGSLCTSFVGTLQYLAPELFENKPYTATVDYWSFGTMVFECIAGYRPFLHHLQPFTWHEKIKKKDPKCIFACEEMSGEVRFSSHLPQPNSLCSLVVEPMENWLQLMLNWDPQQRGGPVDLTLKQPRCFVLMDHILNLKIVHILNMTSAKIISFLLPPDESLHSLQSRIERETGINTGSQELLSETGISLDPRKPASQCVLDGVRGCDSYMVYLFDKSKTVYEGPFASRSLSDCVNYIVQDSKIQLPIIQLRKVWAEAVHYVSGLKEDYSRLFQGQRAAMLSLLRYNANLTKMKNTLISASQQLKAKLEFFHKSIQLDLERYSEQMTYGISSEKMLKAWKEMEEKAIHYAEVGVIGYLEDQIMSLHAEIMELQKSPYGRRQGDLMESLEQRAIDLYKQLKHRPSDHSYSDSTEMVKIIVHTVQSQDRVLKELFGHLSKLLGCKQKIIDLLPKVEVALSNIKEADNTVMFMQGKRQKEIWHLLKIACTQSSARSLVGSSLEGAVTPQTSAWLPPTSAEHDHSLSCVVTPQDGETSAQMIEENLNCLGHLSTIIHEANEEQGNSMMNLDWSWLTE
UniProt P51956, sequence (whole entry, looked up): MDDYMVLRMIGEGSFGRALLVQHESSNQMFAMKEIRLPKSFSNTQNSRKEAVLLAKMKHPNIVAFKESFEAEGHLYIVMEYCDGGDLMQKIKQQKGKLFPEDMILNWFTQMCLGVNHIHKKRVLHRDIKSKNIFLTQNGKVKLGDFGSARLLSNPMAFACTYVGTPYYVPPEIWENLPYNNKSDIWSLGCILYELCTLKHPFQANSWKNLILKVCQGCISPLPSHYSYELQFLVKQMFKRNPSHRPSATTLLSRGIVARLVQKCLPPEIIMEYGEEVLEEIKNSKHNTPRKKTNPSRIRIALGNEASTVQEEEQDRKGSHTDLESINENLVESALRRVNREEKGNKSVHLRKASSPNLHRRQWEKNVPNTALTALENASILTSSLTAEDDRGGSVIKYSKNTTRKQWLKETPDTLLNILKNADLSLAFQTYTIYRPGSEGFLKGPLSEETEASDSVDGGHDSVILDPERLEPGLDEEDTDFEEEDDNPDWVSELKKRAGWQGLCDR
UniProt P42336, sequence (whole entry, unmodified, looked up): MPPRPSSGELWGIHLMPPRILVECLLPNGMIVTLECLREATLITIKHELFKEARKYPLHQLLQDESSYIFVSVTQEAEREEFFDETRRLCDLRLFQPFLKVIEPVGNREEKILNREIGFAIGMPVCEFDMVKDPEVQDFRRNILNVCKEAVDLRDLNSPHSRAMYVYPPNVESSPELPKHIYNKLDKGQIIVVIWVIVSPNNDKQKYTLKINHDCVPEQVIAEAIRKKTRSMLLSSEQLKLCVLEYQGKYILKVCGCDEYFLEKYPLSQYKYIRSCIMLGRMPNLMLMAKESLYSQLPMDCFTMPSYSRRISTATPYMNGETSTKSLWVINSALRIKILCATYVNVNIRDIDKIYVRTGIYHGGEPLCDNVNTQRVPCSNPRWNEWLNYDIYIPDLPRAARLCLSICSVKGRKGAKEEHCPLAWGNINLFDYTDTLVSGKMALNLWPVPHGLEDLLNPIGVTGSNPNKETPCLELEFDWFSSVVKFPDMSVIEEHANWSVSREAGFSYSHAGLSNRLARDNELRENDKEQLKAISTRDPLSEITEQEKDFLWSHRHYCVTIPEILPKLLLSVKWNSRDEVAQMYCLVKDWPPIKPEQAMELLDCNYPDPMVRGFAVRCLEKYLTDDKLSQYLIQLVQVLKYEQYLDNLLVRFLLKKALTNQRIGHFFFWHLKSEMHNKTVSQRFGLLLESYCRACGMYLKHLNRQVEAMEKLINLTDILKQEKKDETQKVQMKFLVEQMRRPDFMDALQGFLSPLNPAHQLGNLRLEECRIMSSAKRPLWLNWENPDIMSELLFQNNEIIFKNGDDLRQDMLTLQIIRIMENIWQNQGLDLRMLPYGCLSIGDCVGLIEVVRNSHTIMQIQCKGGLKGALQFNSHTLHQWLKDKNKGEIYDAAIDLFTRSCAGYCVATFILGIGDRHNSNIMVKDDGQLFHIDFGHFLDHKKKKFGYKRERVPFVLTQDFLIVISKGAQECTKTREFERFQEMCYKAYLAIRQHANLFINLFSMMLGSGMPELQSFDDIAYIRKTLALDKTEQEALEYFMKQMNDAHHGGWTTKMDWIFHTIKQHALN

Sample 1 — read-out: cell-free assay; method: competition with immobilised ligand; tested at: 1 µM; endpoint: remaining binding
SMILES: Cc1c(NC(=O)c2cc(C(N)=O)nc3cc(F)ccc23)c(C(F)(F)F)nn1Cc1ccc(C(C)(C)C)cc1
Wee1-like protein kinase (WEE1, Homo sapiens, UniProt P30291): 100%
Phosphatidylinositol 4,5-bisphosphate 3-kinase catalytic subunit alpha isoform (PIK3CA, Homo sapiens, UniProt P42336, E542K): 43%
Serine/threonine-protein kinase Nek3 (NEK3, Homo sapiens, UniProt P51956): 100%
Hepatocyte growth factor receptor (MET, Homo sapiens, UniProt P08581, M1250T): 88%
Maternal embryonic leucine zipper kinase (MELK, Homo sapiens, UniProt Q14680): 100%
Ribosomal protein S6 kinase alpha-6, C-terminal kinase domain (RPS6KA6, Homo sapiens, UniProt Q9UK32): 100%
Inhibitor of nuclear factor kappa-B kinase subunit alpha (CHUK, Homo sapiens, UniProt O15111): 100%
Proto-oncogene tyrosine-protein kinase Src (SRC, Homo sapiens, UniProt P12931): 100%

Sample 2 — organism: Sarcocystis neurona; read-out: parasite growth; tested at: 10 µM; endpoint: inhibition
COC1=C(OC)C(=O)C(CCCCCCCCCCO)=C(C)C1=O: -26%
CC[C@H](C)C(=O)O[C@H]1C[C@@H](C)C=C2C=C[C@H](C)[C@H](CC[C@@H]3C[C@@H](O)CC(=O)O3)[C@H]21: -22.5%
OCCN1CCN(CCCN2c3ccccc3Sc3ccc(C(F)(F)F)cc32)CC1: 88%
Cc1c2oc3c(C)ccc(C(=O)N[C@@H]4C(=O)N[C@H](C(C)C)C(=O)N5CCC[C@H]5C(=O)N(C)CC(=O)N(C)[C@@H](C(C)C)C(=O)O[C@@H]4C)c3nc-2c(C(=O)N[C@@H]2C(=O)N[C@H](C(C)C)C(=O)N3CCC[C@H]3C(=O)N(C)CC(=O)N(C)[C@@H](C(C)C)C(=O)O[C@@H]2C)c(N)c1=O: 9%
Cc1cn([C@H]2C=C[C@@H](CO)O2)c(=O)[nH]c1=O: -22% and -28.6%

Sample 3 — read-out: enzyme activity; action: inhibitor; tested at: 0.5 µM; relative to: control; endpoint: remaining activity
Target: Mitogen-activated protein kinase 10 (MAPK10, Homo sapiens, UniProt P53779)
UniProt P53779, sequence (whole entry, looked up): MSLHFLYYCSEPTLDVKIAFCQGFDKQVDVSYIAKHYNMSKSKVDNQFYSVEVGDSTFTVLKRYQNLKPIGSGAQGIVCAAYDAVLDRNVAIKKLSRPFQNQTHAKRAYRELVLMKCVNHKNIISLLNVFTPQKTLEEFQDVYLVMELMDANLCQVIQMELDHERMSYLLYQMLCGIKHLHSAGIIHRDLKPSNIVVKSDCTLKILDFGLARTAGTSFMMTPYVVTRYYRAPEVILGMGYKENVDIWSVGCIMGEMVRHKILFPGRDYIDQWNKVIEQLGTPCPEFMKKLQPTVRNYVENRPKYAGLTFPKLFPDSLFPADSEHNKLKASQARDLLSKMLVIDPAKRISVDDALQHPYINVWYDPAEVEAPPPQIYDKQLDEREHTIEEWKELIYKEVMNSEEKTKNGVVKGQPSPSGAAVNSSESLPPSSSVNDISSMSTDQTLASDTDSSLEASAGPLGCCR
Cc1ccc(S(=O)(=O)/C=C/C#N)cc1: 107%
NC(=O)c1ccc(-c2nc(-c3ccc4c(c3)OCCO4)c(-c3ccccn3)[nH]2)cc1: 99.9%
O=C(c1cc2cc(O)ccc2[nH]1)c1cc2cc(O)ccc2[nH]1: 91.6%
CC(C)(C)c1nc2c3cc[nH]c(=O)c3c3cc(F)ccc3c2[nH]1: 107%
O=C1NC(=O)c2c1c1c3ccccc3[nH]c1n1cncc21: 96%
O=C(c1ccccc1)c1ccc(N2CCOCC2)cc1O: 75.3%
CC(C)N(CCC(=O)c1ccc2ccccc2c1)Cc1ccccc1: 91.1%
O=Nc1c(-c2c(O)[nH]c3ccccc23)[nH]c2ccccc12: 96.4%
FC(F)(F)c1ccc(/C=C/c2nc(COc3ccc(CCCCn4ccnn4)cc3)co2)cc1: 94.6%
CCCCc1c(-c2ccc(O)cc2)[nH]c2nccnc12: 100%
O=C1NC(=O)/C(=C/c2ccc3c(c2)OC(F)(F)O3)S1: 102%
NC(=O)c1cccc(-c2cc(Nc3ccc(OC(F)(F)F)cc3)ncn2)c1: 104%
CC(C)n1cnc2c(Nc3cccc(Cl)c3)nc(NCCO)nc21: 101%
O=c1c(-c2ccc(F)cc2)c(-c2ccncc2)[nH]n1-c1ccc(Cl)cc1: 97.1%
COc1cccc(-c2cc(=O)c3ccccc3o2)c1N: 85.7%
O=C1NC(=O)c2c1c1c3ccccc3[nH]c1c1[nH]c3cc(Br)ccc3c21: 105%
CCCNC(=O)Nc1ccc(Oc2ncnc3cc(OC)c(OC)cc23)cc1Cl: 100%
C[C@@H](N)[C@H]1CC[C@H](C(=O)Nc2ccncc2)CC1: 102%
CN1CCN(c2ccc3nc(-c4c(N)c5c(F)cccc5[nH]c4=O)[nH]c3c2)CC1: 108%
O=C1Nc2ccccc2/C1=C\c1c(Cl)[nH]c2ccccc12: 103%
Cc1cc(Nc2cc(N3CCN(C)CC3)nc(Sc3ccc(NC(=O)C4CC4)cc3)n2)[nH]n1: 107%
CCN(CC)CCCCN1c2ccccc2Oc2ccc(Cl)cc21: 104%
O=C1c2ccccc2-c2nc3nnnn3nc21: 55%
COc1cc2c(N3CCN(C(=O)Nc4ccc(OC(C)C)cc4)CC3)ncnc2cc1OCCCN1CCCCC1: 94.6%
Oc1cccc(-c2nc(N3CCOCC3)c3oc4ncccc4c3n2)c1: 102%

Sample 4 — read-out: potassium current; action: inhibitor; method: manual patch clamp; cells: HEK293 stably expressing hERG; endpoint: mean inhibition
Compound: O=C1CCC(N2Cc3cc(C4CCN(Cc5ccccc5)CC4)ccc3C2=O)C(=O)N1 (stereo not drawn)
Target: Voltage-gated inwardly rectifying potassium channel KCNH2 (KCNH2, Homo sapiens, UniProt Q12809)
UniProt Q12809, sequence (whole entry, looked up): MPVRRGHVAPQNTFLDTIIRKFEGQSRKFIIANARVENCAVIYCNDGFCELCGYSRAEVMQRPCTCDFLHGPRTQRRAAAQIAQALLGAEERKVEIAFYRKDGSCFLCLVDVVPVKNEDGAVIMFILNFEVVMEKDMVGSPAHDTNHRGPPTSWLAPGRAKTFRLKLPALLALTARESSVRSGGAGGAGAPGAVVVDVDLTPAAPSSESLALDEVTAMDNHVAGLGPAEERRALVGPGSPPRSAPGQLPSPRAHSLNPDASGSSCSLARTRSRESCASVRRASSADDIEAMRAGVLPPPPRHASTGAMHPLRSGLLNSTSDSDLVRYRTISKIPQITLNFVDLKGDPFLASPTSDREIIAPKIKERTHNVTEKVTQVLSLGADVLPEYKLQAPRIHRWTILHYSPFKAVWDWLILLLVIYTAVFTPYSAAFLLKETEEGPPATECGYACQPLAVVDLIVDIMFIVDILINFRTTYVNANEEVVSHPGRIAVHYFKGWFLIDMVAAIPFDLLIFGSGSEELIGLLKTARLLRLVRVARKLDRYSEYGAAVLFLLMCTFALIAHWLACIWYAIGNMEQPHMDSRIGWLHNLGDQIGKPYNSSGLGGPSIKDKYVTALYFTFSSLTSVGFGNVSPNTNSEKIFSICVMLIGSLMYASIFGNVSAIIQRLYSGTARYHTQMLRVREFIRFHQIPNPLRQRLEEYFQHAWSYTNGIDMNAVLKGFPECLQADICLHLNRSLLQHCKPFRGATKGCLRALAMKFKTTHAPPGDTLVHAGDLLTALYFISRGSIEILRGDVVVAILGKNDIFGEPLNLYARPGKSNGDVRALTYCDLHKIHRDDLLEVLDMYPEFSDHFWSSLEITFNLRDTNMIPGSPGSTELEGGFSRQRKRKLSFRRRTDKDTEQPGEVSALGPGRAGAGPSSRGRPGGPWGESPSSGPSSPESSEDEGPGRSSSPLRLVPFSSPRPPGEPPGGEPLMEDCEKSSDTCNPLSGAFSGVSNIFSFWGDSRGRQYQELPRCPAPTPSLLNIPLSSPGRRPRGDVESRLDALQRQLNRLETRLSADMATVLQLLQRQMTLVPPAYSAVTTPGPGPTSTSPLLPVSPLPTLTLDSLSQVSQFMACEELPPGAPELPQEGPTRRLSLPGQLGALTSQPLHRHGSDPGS
1.18 µM, measured concentration: 15%
3.00 µM, nominal concentration: 32.7%
1.00 µM, nominal concentration: 15%
31.13 µM, measured concentration: 77.5%
3.39 µM, measured concentration: 32.7%
10.00 µM, nominal concentration: 56.2%
30.00 µM, nominal concentration: 77.5%
11.04 µM, measured concentration: 56.2%

Sample 5 — species: human; matrix: microsomes or S9; tested at: 2 µM; time: 0.5 h; endpoint: remaining compound
CCOc1cc(=O)n2c(c1C(=O)Nc1cc(Cl)c(OC)cc1OC)CCCC2: 73.6%
CN1CC(c2n[nH]c(=O)n2CCc2ccccc2F)CC1=O (stereo not drawn): > 99%
CCCN(CCC)C(=O)c1cc2cc(Cl)ncc2n1CCOC: 11.2%
COc1ncc(-c2ccc(-c3ccn[nH]3)cc2)c(OC)n1: 90.8%
Cc1n[nH]cc1CNC(=O)c1ccc(Cn2c(=O)c3cccn3c3cccnc32)o1: 10.6%

Some of these lines once more (sample 3):
Cc1cc(Nc2cc(N3CCN(C)CC3)nc(Sc3ccc(NC(=O)C4CC4)cc3)n2)[nH]n1: 107%
CCN(CC)CCCCN1c2ccccc2Oc2ccc(Cl)cc21: 104%
O=C1c2ccccc2-c2nc3nnnn3nc21: 55%
COc1cc2c(N3CCN(C(=O)Nc4ccc(OC(C)C)cc4)CC3)ncnc2cc1OCCCN1CCCCC1: 94.6%
Oc1cccc(-c2nc(N3CCOCC3)c3oc4ncccc4c3n2)c1: 102%
